Assay results from different studies.
Each numbered part is a random draw from the data of one study; scales do not carry over between parts.

Block 1
Target: Sal-like protein 4, full length isoform B (SALL4, Homo sapiens, UniProt Q9UJQ4-2, residues 1-616)
Method: universal PBM
Molecule type: double-stranded DNA, one strand shown
Matrix: in vitro
Tested at: not given
Setting: 8-mer, flanks averaged, mean of replicates
Direction: higher = stronger binding
Quantity: E-score
Target sequence (chain): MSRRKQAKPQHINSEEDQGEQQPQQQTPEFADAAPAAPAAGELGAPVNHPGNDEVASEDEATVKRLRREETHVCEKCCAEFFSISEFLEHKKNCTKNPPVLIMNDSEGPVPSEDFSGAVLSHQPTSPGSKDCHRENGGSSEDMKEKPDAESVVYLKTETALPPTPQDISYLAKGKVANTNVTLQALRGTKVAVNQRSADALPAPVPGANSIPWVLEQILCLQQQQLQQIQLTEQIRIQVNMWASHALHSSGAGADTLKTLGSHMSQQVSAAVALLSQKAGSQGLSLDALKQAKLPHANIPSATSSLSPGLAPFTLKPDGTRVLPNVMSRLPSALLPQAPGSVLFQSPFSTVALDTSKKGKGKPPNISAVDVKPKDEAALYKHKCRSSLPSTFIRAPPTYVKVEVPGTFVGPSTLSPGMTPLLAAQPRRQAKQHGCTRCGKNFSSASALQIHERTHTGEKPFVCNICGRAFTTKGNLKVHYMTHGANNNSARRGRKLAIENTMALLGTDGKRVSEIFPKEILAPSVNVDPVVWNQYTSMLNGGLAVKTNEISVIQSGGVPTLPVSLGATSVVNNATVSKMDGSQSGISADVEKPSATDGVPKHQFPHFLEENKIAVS
CTTACCCA: 0.122
ACACTTAG: 0.113
CCACTGCA: -0.0329
GAAACTCA: 0.0686
GTGGTGGA: -0.14
ACCTTAAA: 0.0768

Block 2
Target: Histone acetyltransferase KAT6A, both winged helices, GST fusion (KAT6A, Homo sapiens, UniProt Q92794, residues 1-181)
Method: protein binding microarray
Molecule type: double-stranded DNA, one strand shown
Matrix: in vitro
Tested at: not given
Setting: 8-mer, flanks averaged, mean of 2 arrays, mostly near background
Reference: not given
Direction: higher = stronger binding
Quantity: E-score
Residues (chain): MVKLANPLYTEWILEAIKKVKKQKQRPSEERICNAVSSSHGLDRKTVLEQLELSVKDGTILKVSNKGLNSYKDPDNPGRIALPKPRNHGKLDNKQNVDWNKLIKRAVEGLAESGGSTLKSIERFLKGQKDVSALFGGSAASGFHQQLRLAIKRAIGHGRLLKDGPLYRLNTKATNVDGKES
CCGGAAGA: 0.162
TGCCCGCA: 0.102
GACTGTTA: -0.021
AAGGCCTT: -0.117
CAGATCCA: -0.225
TGCATCAA: -0.0853

Block 3
Target: Ras GTPase-activating protein-binding protein 1, C-terminal RGG region (G3BP1, Homo sapiens, UniProt Q13283)
Chain of UniProt Q13283 (whole entry, looked up): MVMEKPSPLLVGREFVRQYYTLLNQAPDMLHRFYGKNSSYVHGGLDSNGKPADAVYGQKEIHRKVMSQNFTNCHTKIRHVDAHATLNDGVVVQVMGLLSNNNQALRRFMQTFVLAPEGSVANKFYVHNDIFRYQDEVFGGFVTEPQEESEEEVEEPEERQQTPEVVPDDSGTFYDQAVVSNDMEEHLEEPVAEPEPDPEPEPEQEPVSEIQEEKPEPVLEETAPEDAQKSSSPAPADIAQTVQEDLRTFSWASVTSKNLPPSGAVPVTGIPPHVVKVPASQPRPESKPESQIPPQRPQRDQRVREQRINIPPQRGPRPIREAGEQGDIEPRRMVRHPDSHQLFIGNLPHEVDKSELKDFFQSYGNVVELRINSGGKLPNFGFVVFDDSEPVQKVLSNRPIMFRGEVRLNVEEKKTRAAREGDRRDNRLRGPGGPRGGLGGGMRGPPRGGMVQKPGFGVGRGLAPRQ
Method: RNA Bind-n-Seq
Molecule type: RNA
Matrix: in vitro
Tested at: 1 µM
Setting: whole 134-nt RNA, ends assumed
Together with: 150 mM KCl
Reference: input library
Direction: higher = stronger binding
Quantity: log2 enrichment
Constant ends, left off below: GGGAGUUCUACAGUCCGACGAUC … UGGAAUUCUCGGGUGUCAAGG
AAGUCCUGUGCUACACAUCGUAUGUACCGAAUCGGGAAAAAGGGUGGGAAAAAGGGAAAGUAUUAUGUUACGCCGUUCGGAUCUGCACUU: 0.849
UGGCCCUGGUGGCAUGCGGGGAGGAAGAGGUGGCCUCAUGGAUCGAGGUGGUCCCGGUGGAAUGUUCAGAGGUGGCCGUGGUGGAGACAG: 2.51
CAAGUCCUGUGCUACACAUCGUAUGUACCGAAUCGGCCCGGGGCCCGGGGCCCGGAAAGUAUUAUGUUACGCCGUUCGGAUCUGCACUUC: -1.98
CUCAAGUCCUGUGCUACACAUCGUAUGUACCGAAUCGGAAAGGAAAGGUUUGGAAAGUAUUAUGUUACGCCGUUCGGAUCUGCACUUCCA: -1.28
CCUCAAGUCCUGUGCUACACAUCGUAUGUACCGAAUCGGAAGGGAAGGGAAGGAAAGUAUUAUGUUACGCCGUUCGGAUCUGCACUUCCA: -1.45
UCAAGUCCUGUGCUACACAUCGUAUGUACCGAAUCGGUUUUUGGAAAAAGGAGGAAAGUAUUAUGUUACGCCGUUCGGAUCUGCACUUCC: -1.15

Single results of other studies
PhoQ, residues 284 288 289 292 302 303 TSTLRA
fold induction (PhoP, residues 12 14 15 18 19 LHHVQ (Escherichia coli, UniProt P23836); Sort-seq, refers to: YFP reporter; E. coli; PhoQ-PhoP variant library, together with: 10 µM Mg2+; reference: high Mg2+ state, higher = stronger signaling): 1.31

Repeated from above (block 3):
AAGUCCUGUGCUACACAUCGUAUGUACCGAAUCGGGAAAAAGGGUGGGAAAAAGGGAAAGUAUUAUGUUACGCCGUUCGGAUCUGCACUU: 0.849
